Assay results gathered from unrelated publications.
Numbered parts are unrelated; each lists some results of a single study. Values joined by “and” are separate records of one study, mostly repeats; a detail may differ.
UniProt P15056, sequence (whole entry, looked up): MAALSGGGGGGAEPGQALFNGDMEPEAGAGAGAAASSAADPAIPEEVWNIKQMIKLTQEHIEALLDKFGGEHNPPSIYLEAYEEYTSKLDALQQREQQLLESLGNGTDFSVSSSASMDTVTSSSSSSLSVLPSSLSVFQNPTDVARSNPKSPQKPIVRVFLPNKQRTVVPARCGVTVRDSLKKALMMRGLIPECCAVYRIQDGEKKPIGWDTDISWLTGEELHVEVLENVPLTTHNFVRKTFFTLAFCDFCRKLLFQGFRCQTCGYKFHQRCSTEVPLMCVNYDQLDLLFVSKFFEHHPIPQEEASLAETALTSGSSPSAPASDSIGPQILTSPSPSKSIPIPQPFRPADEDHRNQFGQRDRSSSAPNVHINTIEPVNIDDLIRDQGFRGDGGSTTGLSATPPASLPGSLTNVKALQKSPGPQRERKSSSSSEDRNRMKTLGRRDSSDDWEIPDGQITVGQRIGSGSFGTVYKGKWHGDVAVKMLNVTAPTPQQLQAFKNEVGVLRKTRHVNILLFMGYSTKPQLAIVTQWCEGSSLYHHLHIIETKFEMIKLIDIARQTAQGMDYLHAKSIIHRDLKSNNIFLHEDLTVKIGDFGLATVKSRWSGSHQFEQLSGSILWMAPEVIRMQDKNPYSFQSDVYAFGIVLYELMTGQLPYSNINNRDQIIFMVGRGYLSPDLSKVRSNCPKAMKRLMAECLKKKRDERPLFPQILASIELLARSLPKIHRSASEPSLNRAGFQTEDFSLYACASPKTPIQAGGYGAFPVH
UniProt Q9UM73, sequence (whole entry, looked up): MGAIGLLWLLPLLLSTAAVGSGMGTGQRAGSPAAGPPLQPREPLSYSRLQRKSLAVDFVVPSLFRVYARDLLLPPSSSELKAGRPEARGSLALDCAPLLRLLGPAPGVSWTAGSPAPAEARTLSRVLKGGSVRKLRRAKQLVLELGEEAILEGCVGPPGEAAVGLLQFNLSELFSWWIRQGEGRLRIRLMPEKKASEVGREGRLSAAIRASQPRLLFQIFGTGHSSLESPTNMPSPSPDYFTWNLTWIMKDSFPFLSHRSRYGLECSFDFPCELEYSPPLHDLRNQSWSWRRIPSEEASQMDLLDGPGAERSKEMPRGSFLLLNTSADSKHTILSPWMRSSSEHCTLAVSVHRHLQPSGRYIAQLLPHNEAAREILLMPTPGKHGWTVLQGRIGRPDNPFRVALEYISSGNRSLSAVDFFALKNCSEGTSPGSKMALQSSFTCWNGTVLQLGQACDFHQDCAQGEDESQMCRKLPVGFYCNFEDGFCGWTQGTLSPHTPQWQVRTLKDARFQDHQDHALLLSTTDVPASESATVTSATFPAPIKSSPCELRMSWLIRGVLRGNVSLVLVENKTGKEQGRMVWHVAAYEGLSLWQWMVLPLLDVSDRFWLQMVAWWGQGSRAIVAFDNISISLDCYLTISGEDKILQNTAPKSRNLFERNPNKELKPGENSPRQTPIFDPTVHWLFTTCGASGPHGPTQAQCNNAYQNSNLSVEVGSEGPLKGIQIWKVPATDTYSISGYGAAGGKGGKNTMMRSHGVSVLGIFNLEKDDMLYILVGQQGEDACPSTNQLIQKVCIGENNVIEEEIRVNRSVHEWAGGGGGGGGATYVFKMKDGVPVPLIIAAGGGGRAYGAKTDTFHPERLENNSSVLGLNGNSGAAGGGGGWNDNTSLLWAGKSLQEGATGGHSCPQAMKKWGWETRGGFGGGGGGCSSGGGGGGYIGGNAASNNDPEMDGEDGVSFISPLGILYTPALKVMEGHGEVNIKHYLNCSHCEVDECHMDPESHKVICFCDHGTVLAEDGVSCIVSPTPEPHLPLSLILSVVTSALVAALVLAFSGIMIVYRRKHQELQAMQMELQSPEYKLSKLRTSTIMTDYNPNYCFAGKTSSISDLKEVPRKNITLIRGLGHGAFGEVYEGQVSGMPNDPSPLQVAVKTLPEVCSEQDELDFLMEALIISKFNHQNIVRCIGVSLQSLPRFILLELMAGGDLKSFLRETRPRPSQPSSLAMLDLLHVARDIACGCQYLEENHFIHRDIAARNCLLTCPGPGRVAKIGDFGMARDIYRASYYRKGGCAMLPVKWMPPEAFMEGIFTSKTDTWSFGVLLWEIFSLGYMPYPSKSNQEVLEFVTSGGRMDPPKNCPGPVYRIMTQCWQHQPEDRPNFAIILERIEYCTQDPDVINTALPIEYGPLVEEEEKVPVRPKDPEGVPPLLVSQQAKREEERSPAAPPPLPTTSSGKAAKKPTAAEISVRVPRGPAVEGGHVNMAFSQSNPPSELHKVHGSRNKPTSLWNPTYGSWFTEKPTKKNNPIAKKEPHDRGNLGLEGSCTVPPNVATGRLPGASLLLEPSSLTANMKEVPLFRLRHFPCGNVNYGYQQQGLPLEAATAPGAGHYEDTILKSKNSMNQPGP
UniProt Q06418, sequence (whole entry, looked up): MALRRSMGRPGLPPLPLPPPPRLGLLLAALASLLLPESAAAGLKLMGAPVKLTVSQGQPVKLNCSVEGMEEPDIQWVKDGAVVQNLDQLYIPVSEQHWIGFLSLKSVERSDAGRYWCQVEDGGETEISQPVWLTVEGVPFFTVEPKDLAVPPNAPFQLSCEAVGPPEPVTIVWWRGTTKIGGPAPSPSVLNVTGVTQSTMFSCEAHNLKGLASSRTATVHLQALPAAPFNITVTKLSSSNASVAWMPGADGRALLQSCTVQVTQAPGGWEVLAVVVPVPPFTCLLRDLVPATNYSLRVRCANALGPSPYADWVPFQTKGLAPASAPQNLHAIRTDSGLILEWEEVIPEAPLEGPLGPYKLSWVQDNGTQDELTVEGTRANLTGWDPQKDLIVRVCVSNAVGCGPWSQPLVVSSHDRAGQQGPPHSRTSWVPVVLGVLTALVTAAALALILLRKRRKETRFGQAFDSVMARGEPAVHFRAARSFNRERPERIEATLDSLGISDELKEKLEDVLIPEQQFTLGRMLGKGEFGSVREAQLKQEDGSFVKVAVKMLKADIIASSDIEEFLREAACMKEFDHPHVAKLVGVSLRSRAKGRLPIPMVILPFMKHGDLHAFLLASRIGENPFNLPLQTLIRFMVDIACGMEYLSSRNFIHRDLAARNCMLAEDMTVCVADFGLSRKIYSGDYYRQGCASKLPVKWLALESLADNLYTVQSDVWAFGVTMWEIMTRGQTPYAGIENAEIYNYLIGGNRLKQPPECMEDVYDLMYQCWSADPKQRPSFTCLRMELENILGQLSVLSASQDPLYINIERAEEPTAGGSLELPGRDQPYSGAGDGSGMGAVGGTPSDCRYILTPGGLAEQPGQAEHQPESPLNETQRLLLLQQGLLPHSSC

Sample 1
Structure (SMILES): Cc1nccc(COC(=O)N2C[C@@H]3[C@@H](CNC(=O)c4ccc5[nH]nnc5c4)[C@@H]3C2)n1
Effect on: cell-free assay
Technique: competition with immobilised ligand
Tested at: 1 µM
target	remaining binding [%]
TYRO3 (Homo sapiens, UniProt Q06418)	100
EPHB6 (Homo sapiens, UniProt O15197)	99
TEK (Homo sapiens, UniProt Q02763)	90
BRAF (Homo sapiens, UniProt P15056)	84
CSNK1G1 (Homo sapiens, UniProt Q9HCP0)	100
FLT3 (Homo sapiens, UniProt P36888, N841I)	82
MAPK6 (Homo sapiens, UniProt Q16659)	93
CSNK2A1 (Homo sapiens, UniProt P68400)	81
CDK4 (Homo sapiens, UniProt P11802)	80
LATS1 (Homo sapiens, UniProt O95835)	89
LRRK2 (Homo sapiens, UniProt Q5S007, G2019S)	82
PTK6 (Homo sapiens, UniProt Q13882)	100
ACVR2B (Homo sapiens, UniProt Q13705)	91
PKMYT1 (Homo sapiens, UniProt Q99640)	100
LIM domain kinase 1 (LIMK1, Homo sapiens, UniProt P53667)	100
PIK3CA (Homo sapiens, UniProt P42336, E545K)	86
MAP4K3 (Homo sapiens, UniProt Q8IVH8)	66
ALK (Homo sapiens, UniProt Q9UM73)	87

Sample 2
Target: Receptor tyrosine-protein kinase erbB-4 (ERBB4, Homo sapiens, UniProt Q15303)
UniProt Q15303, sequence (whole entry, looked up): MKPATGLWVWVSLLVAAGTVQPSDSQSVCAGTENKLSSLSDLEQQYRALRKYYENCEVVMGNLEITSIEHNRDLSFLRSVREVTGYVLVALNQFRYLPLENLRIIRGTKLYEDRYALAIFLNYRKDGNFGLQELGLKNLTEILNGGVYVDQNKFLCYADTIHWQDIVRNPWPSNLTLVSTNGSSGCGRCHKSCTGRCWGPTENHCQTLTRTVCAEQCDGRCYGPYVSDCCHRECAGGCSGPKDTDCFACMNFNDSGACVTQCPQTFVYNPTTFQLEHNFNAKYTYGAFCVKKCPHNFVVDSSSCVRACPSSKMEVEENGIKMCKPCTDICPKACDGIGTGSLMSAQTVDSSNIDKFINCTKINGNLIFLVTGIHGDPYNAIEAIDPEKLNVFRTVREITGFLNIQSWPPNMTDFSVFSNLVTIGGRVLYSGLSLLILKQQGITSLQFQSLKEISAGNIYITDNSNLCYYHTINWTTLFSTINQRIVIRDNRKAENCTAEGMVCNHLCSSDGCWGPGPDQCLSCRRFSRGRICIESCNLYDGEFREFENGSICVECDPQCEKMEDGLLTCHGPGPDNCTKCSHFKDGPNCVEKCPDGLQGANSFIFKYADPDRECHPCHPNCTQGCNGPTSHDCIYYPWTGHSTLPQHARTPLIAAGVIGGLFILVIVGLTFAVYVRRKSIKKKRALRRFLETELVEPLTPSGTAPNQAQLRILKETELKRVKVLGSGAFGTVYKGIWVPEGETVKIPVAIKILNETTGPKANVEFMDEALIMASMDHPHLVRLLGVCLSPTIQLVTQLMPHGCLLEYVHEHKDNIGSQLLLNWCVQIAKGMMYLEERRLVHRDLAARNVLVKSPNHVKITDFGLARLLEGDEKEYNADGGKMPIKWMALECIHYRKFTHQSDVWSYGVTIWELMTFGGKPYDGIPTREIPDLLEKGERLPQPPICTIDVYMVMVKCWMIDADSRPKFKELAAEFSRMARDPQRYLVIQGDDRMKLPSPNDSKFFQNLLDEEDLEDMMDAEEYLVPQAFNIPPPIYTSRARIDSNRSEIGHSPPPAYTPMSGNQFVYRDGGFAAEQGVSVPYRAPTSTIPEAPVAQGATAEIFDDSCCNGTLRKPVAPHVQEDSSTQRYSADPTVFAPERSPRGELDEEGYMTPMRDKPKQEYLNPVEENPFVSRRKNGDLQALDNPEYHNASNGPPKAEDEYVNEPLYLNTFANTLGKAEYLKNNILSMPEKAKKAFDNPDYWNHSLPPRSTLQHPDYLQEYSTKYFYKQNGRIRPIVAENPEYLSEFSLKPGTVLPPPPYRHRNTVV
Effect on: enzyme activity
Action: inhibitor
Tested at: 0.5 µM
Relative to: control
Compound	remaining activity [%]
Cc1ccc(NC2=CC(=O)c3sc(C)nc3C2=O)cc1	98.5
Nc1nc(Nc2ccc(S(N)(=O)=O)cc2)nn1C(=O)c1c(F)cccc1F	110
Cc1cc(Nc2nc(-c3ccccc3)nc3ccccc23)n[nH]1	92
Oc1ccc(Nc2nc(-c3ccc(Cl)cc3)cs2)cc1	83.3
Cc1cncc2cccc(S(=O)(=O)N3CCCN(C(=O)CN)C[C@@H]3C)c12	78.4
N#CC(=C(N)Sc1ccc(N)cc1)c1ccccc1C(F)(F)F	89.9
Fc1ccc(-c2nc3n(c2-c2ccncc2)CCS3)cc1	83
CSc1nc(-c2ccnc(N[C@@H](C)c3ccccc3)c2)c(-c2ccc(F)cc2)[nH]1 (racemic)	98.4
CCCC(=O)Oc1ccc2[nH]c(C(=O)c3cc4ccccc4[nH]3)cc2c1	99.8
O=S(=O)(NCCNC/C=C/c1ccc(Br)cc1)c1cccc2cnccc12	94.2
CC[n+]1c(/C=C/N(C)c2ccccc2)n(-c2ccccc2)c2ccc(-c3nc4ccccc4s3)cc21	102
Nc1ncnc2c1cnn2-c1ccccc1	101
COc1ccc(S(=O)(=O)N(CCO)c2ccccc2CN(C)CC=Cc2ccc(Cl)cc2)cc1	104
NC(=O)c1ccc(N(C(N)=O)c2c(F)cccc2F)nc1-c1ccc(F)cc1F	98.1
O=C1Cc2c([nH]c3ccc([N+](=O)[O-])cc23)-c2ccccc2N1	87.3
CC#CC(=O)Nc1cc2c(Nc3ccc(F)c(Cl)c3)ncnc2cn1	1.95
COc1cc(Nc2c(C#N)cnc3cc(OCCCN4CCN(C)CC4)c(OC)cc23)c(Cl)cc1Cl	1.53
O=C1NC(=O)C(c2c[nH]c3ccccc23)=C1c1c[nH]c2ccccc12	110
CC(C)(C)n1nc(Cc2cccc3ccccc23)c2c(N)ncnc21	80.3
Nc1nccc(-c2c(-c3ccc(F)cc3)ncn2C2CCNCC2)n1	86.8
CCc1[nH]c(-c2ccc(OC)cc2)nc1-c1ccncc1	86.8

Sample 3
Cell line: mouse MPNST tumor cells
Technique: high-content immunofluorescence imaging
Refers to: nuclear SOX9
Tested at: 10 µM
Time: 12 h
Setting: mean of 2 replicates
Relative to: DMSO control
Reading: higher = more nuclear SOX9
SMILES	nuclear SOX9 intensity
CCN1CCCC1CNC(=O)c1cc(S(N)(=O)=O)ccc1OC (centres unmarked)	105 % of DMSO
O=c1cc(-c2ccc([N+](=O)[O-])cc2)nc2c(-c3ccc(Cl)cc3)c(Cc3ccccc3)[nH]n12	117 % of DMSO
CC(=O)N(CC(O)CN(C(C)=O)c1c(I)c(C(=O)NCC(O)CO)c(I)c(C(=O)NCC(O)CO)c1I)c1c(I)c(C(=O)NCC(O)CO)c(I)c(C(=O)NCC(O)CO)c1I (centres unmarked)	94.4 % of DMSO
CNC1(C)C2CCC(C2)C1(C)C (centres unmarked)	102 % of DMSO and 115 % of DMSO
O=C(Nc1ccc(S(=O)(=O)Nc2ccccc2Cl)c(Cl)c1)c1ccccn1	95.8 % of DMSO
C=C(CC)C(=O)c1ccc(OCC(=O)O)c(Cl)c1Cl	97.6 % of DMSO
Cc1cc([N+](=O)[O-])ccc1NS(=O)(=O)c1cc(Cl)ccc1Cl	106 % of DMSO
C/C(=C\C(=O)OCCCCCCCCC(=O)O)C[C@@H]1OC[C@H](C[C@@H]2O[C@H]2[C@@H](C)[C@H](C)O)[C@@H](O)[C@H]1O	109 % of DMSO
Cc1cc(NC(=O)C2=C(O)c3ccccc3S(=O)(=O)N2C)no1	104 % of DMSO
CCN[C@H]1CN(CCCOC)S(=O)(=O)c2sc(S(N)(=O)=O)cc21	99.5 % of DMSO
N=C1NC(=O)/C(=C/c2ccc(O)cc2)S1	74.8 % of DMSO
COc1ccc(CCN2CCN(CCCc3ccccc3)CC2)cc1OC	94.7 % of DMSO
COc1cccc(OC)c1-c1cc(C(=O)NC(CC(C)C)C(=O)O)nn1-c1ccnc2cc(Cl)ccc12 (centres unmarked)	101 % of DMSO
CCCCCCC[N+](CC)(CC)CCCCc1ccc(Cl)cc1	74.9 % of DMSO
Cc1nnc(C(=O)NC(C)(C)c2nc(C(=O)NCc3ccc(F)cc3)c(O)c(=O)n2C)o1	88.3 % of DMSO
COc1ccccc1OCC(O)CN1CCN(CC(=O)Nc2c(C)cccc2C)CC1 (centres unmarked)	95.4 % of DMSO and 107 % of DMSO and 96.6 % of DMSO
O=C(O)c1ccc(C(=O)N[C@@H](c2ccc(OC(F)(F)F)c(F)c2)c2ncccc2F)nc1	90 % of DMSO
COc1ccc2c3c1O[C@H]1C[C@@H](O)C=C[C@@]31CCN(C)C2	92.8 % of DMSO and 107 % of DMSO
Cc1csc(S(=O)(=O)N(CC(C)C)c2cc3c(cc2OCc2ccc(C(=O)O)cc2)CCC3)n1	96.3 % of DMSO
O=C(Nc1ccccc1)c1cc([N+](=O)[O-])ccc1Cl	100 % of DMSO
c1ccc2c(c1)Cc1c(Nc3ccc4c(c3)OCCO4)n[nH]c1-2	169 % of DMSO

Sample 4
Target: Calcium/calmodulin-dependent protein kinase type II subunit alpha (CAMK2A, Homo sapiens, UniProt Q9UQM7)
UniProt Q9UQM7, sequence (whole entry, looked up): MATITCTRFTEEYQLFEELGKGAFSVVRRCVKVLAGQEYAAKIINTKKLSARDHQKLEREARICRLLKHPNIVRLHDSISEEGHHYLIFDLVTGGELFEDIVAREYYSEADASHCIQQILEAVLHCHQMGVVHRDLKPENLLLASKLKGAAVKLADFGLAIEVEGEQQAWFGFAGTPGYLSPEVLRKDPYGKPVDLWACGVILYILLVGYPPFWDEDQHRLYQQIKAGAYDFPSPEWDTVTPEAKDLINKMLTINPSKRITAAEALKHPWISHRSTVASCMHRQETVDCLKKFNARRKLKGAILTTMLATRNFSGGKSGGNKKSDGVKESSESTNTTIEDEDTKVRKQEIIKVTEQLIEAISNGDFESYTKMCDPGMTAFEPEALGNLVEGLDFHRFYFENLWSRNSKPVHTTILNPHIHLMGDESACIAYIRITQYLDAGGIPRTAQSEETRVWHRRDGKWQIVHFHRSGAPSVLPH
Effect on: enzyme activity
Action: inhibitor
Tested at: 10 µM
Structure (SMILES)	inhibition [%]
CO[C@@H]1C=C2[C@@H]3CC(C)(C)CC[C@]3(CO)[C@H](O)C[C@@]2(C)[C@]2(C)CC[C@H]3[C@](C)(CO)[C@@H](O[C@@H]4O[C@H](C)[C@H](O)[C@H](O[C@@H]5O[C@H](CO)[C@@H](O)[C@H](O)[C@H]5O)[C@H]4O)CC[C@]3(C)[C@@H]12	-25
CC[C@@H](CO)NCCN[C@@H](CC)CO	4
C=C1C[C@@]23CC[C@H]4[C@@](C)(CCC[C@@]4(C)C(=O)O[C@@H]4O[C@H](CO)[C@@H](O)[C@H](O)[C@H]4O[C@@H]4O[C@H](CO)[C@@H](O)[C@H](O)[C@H]4O)[C@@H]2CC[C@]1(O[C@@H]1O[C@H](CO)[C@@H](O)[C@H](O[C@@H]2O[C@H](CO)[C@@H](O)[C@H](O)[C@H]2O)[C@H]1O[C@@H]1O[C@H](CO)[C@@H](O)[C@H](O)[C@H]1O)C3	-8
NC(=O)/C=C\C(=O)O	2
OC1(c2ccc(Cl)c(C(F)(F)F)c2)CCN(CCCC(c2ccc(F)cc2)c2ccc(F)cc2)CC1	1
COc1cc(C(=O)O)cc(O)c1O	-3
COc1cc(CCO[C@@H]2O[C@H](CO[C@@H]3O[C@H](CO)[C@@H](O)[C@H](O)[C@H]3O)[C@@H](OC(=O)/C=C/c3ccc(O)c(O)c3)[C@H](O[C@@H]3O[C@@H](C)[C@H](O)[C@@H](O)[C@H]3O)[C@H]2O)ccc1O	-1
C=C[C@]1(C)C[C@@H](OC(=O)CO)[C@]2(C)[C@H](C)CC[C@]3(CCC(=O)[C@H]32)[C@@H](C)[C@@H]1O	12

For quick reference, copied from above (sample 3):
SMILES	nuclear SOX9 intensity
Cc1cc([N+](=O)[O-])ccc1NS(=O)(=O)c1cc(Cl)ccc1Cl	106 % of DMSO
COc1ccc(CCN2CCN(CCCc3ccccc3)CC2)cc1OC	94.7 % of DMSO
N=C1NC(=O)/C(=C/c2ccc(O)cc2)S1	74.8 % of DMSO
O=C(O)c1ccc(C(=O)N[C@@H](c2ccc(OC(F)(F)F)c(F)c2)c2ncccc2F)nc1	90 % of DMSO
c1ccc2c(c1)Cc1c(Nc3ccc4c(c3)OCCO4)n[nH]c1-2	169 % of DMSO
CCCCCCC[N+](CC)(CC)CCCCc1ccc(Cl)cc1	74.9 % of DMSO
C/C(=C\C(=O)OCCCCCCCCC(=O)O)C[C@@H]1OC[C@H](C[C@@H]2O[C@H]2[C@@H](C)[C@H](C)O)[C@@H](O)[C@H]1O	109 % of DMSO
CNC1(C)C2CCC(C2)C1(C)C (centres unmarked)	102 % of DMSO and 115 % of DMSO
COc1cccc(OC)c1-c1cc(C(=O)NC(CC(C)C)C(=O)O)nn1-c1ccnc2cc(Cl)ccc12 (centres unmarked)	101 % of DMSO
Cc1cc(NC(=O)C2=C(O)c3ccccc3S(=O)(=O)N2C)no1	104 % of DMSO
CCN[C@H]1CN(CCCOC)S(=O)(=O)c2sc(S(N)(=O)=O)cc21	99.5 % of DMSO
